Results collected from several papers.
Each line is one published result; not all experiments were run side by side. Several values in a cell are separate wells, animals, samples, runs or records. Numbers after ± are the reported error.
Nuclear receptor subfamily 2 group C member 2 ligand-binding domain: Nuclear receptor subfamily 2 group C member 2, ligand-binding domain (Homo sapiens, UniProt P49116)
Sequence of UniProt O14980 (whole entry, looked up): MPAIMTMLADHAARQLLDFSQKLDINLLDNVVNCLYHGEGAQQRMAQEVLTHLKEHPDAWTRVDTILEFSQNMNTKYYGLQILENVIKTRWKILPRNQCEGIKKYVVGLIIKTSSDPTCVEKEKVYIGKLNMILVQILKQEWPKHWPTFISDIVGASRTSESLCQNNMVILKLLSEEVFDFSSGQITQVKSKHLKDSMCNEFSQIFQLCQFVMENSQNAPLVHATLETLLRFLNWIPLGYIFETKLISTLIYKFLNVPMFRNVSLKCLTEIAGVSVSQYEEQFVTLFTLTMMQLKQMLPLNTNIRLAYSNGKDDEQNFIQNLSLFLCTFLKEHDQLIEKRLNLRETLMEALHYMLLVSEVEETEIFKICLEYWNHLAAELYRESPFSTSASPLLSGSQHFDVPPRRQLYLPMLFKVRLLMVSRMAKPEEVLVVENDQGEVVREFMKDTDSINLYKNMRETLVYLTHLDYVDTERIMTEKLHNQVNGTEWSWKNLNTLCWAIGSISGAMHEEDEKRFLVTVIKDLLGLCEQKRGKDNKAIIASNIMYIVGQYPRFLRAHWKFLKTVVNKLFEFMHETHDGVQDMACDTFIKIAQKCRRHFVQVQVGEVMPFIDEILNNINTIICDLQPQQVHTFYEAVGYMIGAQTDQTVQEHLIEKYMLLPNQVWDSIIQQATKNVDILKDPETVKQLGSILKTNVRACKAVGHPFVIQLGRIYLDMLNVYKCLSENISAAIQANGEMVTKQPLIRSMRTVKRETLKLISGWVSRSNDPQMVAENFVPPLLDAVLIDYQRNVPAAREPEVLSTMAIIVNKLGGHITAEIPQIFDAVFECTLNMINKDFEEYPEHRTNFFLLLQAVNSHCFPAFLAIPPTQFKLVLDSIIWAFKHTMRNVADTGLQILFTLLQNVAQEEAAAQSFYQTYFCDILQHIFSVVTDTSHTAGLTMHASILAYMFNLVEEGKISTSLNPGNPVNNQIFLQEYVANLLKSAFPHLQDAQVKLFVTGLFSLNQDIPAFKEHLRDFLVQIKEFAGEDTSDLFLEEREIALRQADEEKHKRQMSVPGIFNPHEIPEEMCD
Sequence of UniProt P49116 (whole entry, looked up): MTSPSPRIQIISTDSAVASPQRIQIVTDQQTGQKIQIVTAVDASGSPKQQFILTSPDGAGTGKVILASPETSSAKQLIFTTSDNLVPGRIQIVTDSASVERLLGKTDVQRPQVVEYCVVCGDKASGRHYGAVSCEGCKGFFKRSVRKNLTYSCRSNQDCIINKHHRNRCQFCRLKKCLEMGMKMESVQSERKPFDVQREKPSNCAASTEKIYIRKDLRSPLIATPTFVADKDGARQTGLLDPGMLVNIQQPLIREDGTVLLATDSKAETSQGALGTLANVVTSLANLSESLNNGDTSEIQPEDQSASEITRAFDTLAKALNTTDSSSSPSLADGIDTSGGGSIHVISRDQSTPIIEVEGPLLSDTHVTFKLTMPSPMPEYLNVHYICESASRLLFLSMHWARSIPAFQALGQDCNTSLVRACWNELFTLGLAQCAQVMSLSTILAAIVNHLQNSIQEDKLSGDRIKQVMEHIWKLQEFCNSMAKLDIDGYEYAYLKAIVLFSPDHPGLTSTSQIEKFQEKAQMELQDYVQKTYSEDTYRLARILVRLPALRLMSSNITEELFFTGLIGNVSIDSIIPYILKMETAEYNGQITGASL
Sequence of UniProt O75925 (whole entry, looked up): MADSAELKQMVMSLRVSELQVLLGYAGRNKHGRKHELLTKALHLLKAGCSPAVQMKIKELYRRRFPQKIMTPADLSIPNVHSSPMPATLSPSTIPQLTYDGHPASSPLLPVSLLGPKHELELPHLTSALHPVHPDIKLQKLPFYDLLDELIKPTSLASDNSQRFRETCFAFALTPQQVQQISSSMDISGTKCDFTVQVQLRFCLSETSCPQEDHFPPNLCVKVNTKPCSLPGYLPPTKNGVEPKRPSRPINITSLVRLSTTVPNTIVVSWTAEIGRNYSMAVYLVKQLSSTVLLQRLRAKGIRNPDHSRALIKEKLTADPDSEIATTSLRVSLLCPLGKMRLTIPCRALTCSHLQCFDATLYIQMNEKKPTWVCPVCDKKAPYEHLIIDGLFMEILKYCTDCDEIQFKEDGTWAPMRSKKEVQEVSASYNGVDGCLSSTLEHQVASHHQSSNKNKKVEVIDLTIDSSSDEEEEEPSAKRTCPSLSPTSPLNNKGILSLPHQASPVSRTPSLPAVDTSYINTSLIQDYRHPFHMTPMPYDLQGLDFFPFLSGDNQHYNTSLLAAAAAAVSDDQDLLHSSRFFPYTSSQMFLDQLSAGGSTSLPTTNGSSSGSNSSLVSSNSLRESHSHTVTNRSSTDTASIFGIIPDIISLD
Sequence of UniProt Q9UPZ9 (whole entry, looked up): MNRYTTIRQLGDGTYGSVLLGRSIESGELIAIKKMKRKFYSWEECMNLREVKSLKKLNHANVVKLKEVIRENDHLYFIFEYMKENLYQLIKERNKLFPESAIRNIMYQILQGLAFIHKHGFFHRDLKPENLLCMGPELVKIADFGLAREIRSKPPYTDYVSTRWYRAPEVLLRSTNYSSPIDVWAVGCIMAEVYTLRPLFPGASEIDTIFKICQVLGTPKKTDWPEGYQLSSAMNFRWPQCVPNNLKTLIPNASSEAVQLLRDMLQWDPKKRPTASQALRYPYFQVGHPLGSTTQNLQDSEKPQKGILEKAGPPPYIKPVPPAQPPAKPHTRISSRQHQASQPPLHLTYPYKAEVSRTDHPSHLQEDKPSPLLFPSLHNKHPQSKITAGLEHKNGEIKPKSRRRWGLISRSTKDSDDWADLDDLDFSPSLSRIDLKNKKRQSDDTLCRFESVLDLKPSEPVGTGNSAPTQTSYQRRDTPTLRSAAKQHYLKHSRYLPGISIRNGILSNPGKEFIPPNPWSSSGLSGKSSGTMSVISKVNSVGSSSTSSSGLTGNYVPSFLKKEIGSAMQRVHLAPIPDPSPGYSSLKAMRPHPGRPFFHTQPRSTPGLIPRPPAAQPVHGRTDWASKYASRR
Sequence of UniProt Q13546 (whole entry, looked up): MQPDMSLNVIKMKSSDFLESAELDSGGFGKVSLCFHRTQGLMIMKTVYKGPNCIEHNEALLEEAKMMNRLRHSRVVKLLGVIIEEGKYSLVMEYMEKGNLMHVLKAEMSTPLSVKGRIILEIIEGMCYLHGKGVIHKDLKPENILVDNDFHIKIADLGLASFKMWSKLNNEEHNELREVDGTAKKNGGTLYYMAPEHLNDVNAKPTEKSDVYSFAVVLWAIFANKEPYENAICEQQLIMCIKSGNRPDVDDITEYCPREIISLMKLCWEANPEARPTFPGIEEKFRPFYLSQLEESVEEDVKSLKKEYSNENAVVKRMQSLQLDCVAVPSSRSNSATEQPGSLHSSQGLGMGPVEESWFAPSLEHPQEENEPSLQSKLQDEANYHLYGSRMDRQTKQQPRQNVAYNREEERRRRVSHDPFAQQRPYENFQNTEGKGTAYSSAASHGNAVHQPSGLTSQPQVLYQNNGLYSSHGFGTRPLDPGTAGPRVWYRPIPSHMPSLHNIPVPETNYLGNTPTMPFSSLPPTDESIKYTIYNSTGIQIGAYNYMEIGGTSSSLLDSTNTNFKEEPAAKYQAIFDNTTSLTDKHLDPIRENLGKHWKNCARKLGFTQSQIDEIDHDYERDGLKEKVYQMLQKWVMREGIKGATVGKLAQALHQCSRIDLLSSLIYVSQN
Sequence of UniProt O08914 (whole entry, looked up): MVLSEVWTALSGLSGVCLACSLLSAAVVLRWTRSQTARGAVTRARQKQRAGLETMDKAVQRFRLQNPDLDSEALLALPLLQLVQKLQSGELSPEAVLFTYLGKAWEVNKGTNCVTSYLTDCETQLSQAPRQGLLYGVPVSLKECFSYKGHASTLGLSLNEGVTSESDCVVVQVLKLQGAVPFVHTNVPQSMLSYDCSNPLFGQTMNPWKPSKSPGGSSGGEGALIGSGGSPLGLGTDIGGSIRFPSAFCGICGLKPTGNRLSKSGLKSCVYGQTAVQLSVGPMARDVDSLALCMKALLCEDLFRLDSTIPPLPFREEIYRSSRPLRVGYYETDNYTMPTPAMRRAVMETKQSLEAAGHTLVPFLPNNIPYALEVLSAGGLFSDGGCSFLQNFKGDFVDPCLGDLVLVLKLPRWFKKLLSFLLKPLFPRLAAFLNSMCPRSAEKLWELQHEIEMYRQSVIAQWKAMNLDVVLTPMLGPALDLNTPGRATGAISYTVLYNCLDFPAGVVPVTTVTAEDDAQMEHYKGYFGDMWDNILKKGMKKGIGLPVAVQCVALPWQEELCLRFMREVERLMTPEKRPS
Sequence of UniProt Q5AP53 (whole entry, looked up): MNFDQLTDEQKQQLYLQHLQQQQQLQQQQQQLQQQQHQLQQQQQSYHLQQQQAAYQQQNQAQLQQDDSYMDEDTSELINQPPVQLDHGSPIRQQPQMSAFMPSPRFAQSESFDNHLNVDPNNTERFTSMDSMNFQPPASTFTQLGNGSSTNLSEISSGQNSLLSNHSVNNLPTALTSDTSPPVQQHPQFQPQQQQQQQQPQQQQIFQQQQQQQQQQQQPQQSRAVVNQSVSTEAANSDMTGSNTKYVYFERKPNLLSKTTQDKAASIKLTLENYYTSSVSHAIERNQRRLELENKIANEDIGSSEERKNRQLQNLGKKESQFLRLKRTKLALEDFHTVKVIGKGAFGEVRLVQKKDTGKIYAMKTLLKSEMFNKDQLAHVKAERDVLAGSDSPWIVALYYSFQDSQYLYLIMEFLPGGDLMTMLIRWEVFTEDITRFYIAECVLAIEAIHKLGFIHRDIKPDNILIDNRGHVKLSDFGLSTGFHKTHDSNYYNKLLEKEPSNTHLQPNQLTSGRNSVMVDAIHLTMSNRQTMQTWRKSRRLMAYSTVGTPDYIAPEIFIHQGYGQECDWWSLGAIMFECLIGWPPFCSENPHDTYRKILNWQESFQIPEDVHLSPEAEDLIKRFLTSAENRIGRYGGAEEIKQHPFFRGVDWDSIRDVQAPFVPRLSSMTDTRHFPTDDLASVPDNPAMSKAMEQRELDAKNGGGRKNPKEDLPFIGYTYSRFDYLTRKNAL

| Structure (SMILES) | target or system | test | test system | setting | how to read | endpoint | result |
| --- | --- | --- | --- | --- | --- | --- | --- |
| OC[C@H]1OC(O)[C@H](O)[C@@H](O)[C@@H]1O (some centres unmarked) | Hexokinase-3 (HK3, Homo sapiens, UniProt P52790) | isothermal titration calorimetry | – | 25 °C | – | entropic term TΔS | -13.2 ± 0.4 kcal/mol |
| COc1cc(-c2cncc3c2CN(C)Cc2cc(N4CCNCC4)ccc2-3)cc(OC)c1OC | CILK1 (Homo sapiens, UniProt Q9UPZ9) | kinase activity | – | 1 µM, human enzyme, added: ATP 10 µM | relative to: DMSO control | remaining activity | 113% |
| O=C(O)c1cc(/N=N/c2ccc(O)c(C(=O)O)c2)ccc1O | Nuclear receptor subfamily 2 group C member 2 ligand-binding domain | SPR imaging | – | 600 nM | – | koff | 1.26e-07 s⁻¹ |
| O=C(O)[C@@H]1CCCN1c1ncnc2[nH]cnc12 (racemic) | E3 SUMO-protein ligase PIAS1 (PIAS1, Homo sapiens, UniProt O75925) | binding, affinity selection mass spectrometry | – | – | relative to: other proteins in batch | log fold enrichment | -0.098 |
| O=C(Nc1cnccc1Cl)N1CCN(Cc2ccc3c(c2)OC(F)(F)O3)CC1 | Faah (Mus musculus, UniProt O08914) | enzyme activity, inhibitor, ex vivo | rat, liver | oral, 8 h | – | ED50 | 3.7 mg/kg |
| O=C1OC(c2ccccc2)=N/C1=C\c1ccccc1 | MAL12 (Saccharomyces cerevisiae S288c, UniProt P53341) | inhibitor, Lineweaver-Burk | – | 1600 ppm, added: pNPG substrate | – | Vmax | 0.042 mM/min |
| O=c1nc(SCc2cc(F)cc(C(F)(F)F)c2)nc(SCc2ccc3nc(Cl)ccc3c2)[nH]1 | TOP2A (Homo sapiens, UniProt P11388) | DNA cleavage | – | 15.6 µM, replicate 2 | – | linear DNA | 0% |
| CC(C)[C@H](NC(=O)c1cc(-c2cnn3cc(-c4ccc(OCCN5CCCCC5)cc4)cnc23)cs1)C(F)(F)F | RIPK1 (human) | radiometric kinase | – | 15 nM | relative to: RIPK1 over ULK1 | relative inhibition | 0.0114 |
| CN=C(NC)NCCC[C@H](NC(=O)[C@H](C)N)C(=O)N[C@H](C(=O)N[C@@H](CCCCN)C(=O)N[C@@H](CCC(N)=O)C(=O)N[C@H](C(=O)N[C@@H](C)C(=O)N[C@@H](CCCNC(=N)N)C(=O)N[C@@H](CCCCN)C(=O)N[C@@H](CO)C(=O)O)[C@@H](C)O)[C@@H](C)O | Transcriptional regulator ATRX (ATRX, Homo sapiens, UniProt P46100, F284Y/K251R) | isothermal titration calorimetry | – | concentration not given, pH 7.5, 25.0 °C | – | binding enthalpy | -4.39 kcal/mol |
| O=C(Nc1cnc2ccccc2c1)c1cc2[nH]ccc2cc1Cl | COS-7 | – | – | 10 µM, 24 h, 0.1% DMSO, unit not given | relative to: vehicle control | apoptotic cells | 1.44 ± 1.12 |
| COc1ccc2c(c1)C(=O)N(CCN1CCN(c3ccccc3OC)CC1)C2 | DRD5 (Homo sapiens, UniProt P21918) | radioligand binding | – | concentration not given, added: [3H]SCH23390 | – | inhibition | 21.8% |
| Nc1ccn([C@@H]2CS[C@H](CO)O2)c(=O)n1 | Nuclear receptor subfamily 2 group C member 2 ligand-binding domain | SPR imaging | – | 600 nM | – | koff | 4.73e-05 s⁻¹ |
| C=CC(=O)N1CCC(COCC(=O)N2CCN(c3nc(-c4cnc(N)nc4C(F)F)nc(N4CCOC[C@@H]4C)n3)CC2)CC1 | RIPK1 (Homo sapiens, UniProt Q13546) | KINOMEscan | – | 1 µM | – | remaining binding | 100% |
| O=C(O)c1cc(O)c2c(c1)C(=O)c1cccc(O)c1C2=O | HepaRG co-cultured with HK-2 | MTT | – | 33.33 µM, 24 h | relative to: untreated control | cell viability | 103 ± 9.83% |
| c1ccc(-c2n[nH]cc2-c2ccnc3ccccc23)nc1 | Serine/threonine-protein kinase CBK1 (CBK1, Candida albicans, UniProt Q5AP53) | kinase binding, competitor, MIB/MS competition, refers to: CBK1 | Candida albicans cell lysate | 10 µM | relative to: DMSO | log2 fold change | 1.56 |
| COc1cc2c(c(OC)c1OC)C(=O)c1c(cc(C)c(O)c1OC)C2=O | HepaRG co-cultured with HK-2 | MTT | – | 66.67 µM, 24 h | relative to: untreated control | cell viability | 72.4 ± 7.89% |
| O=C(NC1CCC1)c1ccc2nc(-c3cccc(NS(=O)(=O)NCCN4CCCCC4)c3)cn2c1 | ALK (Homo sapiens, UniProt Q9UM73, L1196M) | enzyme activity | – | 10 µM | – | remaining activity | 86% |
| CC[S+]([O-])c1nc(-c2ccccc2)cc(C(F)(F)F)n1 (centres unmarked) | Exportin-1 (XPO1, Homo sapiens, UniProt O14980) | nuclear export, high content imaging | HeLa Kyoto reporter | 5 µM, 2 h | – | cells with nuclear reporter | 2.94% and 3.46% and 0.98% |
| O=C(O)CCc1nc(-c2ccccc2)c(-c2ccccc2)o1 | COS-7 | – | – | 50 µM, 24 h, 0.1% DMSO, unit not given | relative to: vehicle control | apoptotic cells | 0.74 ± 0.1 |
| CC(=O)c1ccc2cc(S(=O)(=O)Nc3ccc(Br)cc3)ccc2c1 | STAT3 (Homo sapiens, UniProt P40763) | tyrosine phosphorylation, inhibitor, ELISA, refers to: phospho-Tyr705 | – | – | – | Hill slope | -0.534 |
